Published values from different studies.
Several values in a cell are separate wells, animals, samples, runs or records. Numbers after ± are the reported error.

Cn1ncnc1[C@H]1c2n[nH]c(=O)c3cc(F)cc(c23)N[C@@H]1c1ccc(F)cc1 — patients with adverse event (item: Epistaxis; advanced solid tumour patients; oral, 0.5 mg single dose, alone or 2 with itraconazole): 12%
CC(C)C(=O)O[C@H]1[C@H](C)OC(=O)[C@@H]1Cc1ccccc1 — DT50 whole system (Swiss Lake sand sediment, aerobic dark; 20 °C): 0.89 days
C[Si](C)(C)O[Si](C)(C)O[Si](C)(C)C — total depuration rate constant (Oncorhynchus mykiss; model from S9 data; per S9 batch): 0.08 day⁻¹ and 0.09 day⁻¹ and 0.067 day⁻¹
Cc1nc2ccc(OCc3ccc(C(F)(F)F)cc3)cc2[nH]1 — tissue/plasma ratio (Balb/c mouse, male, heart; intravenous, 1 mg/kg, 3 h; baseline: tissue over plasma): 3.2 ± 0.5
CCc1c(-c2ccccc2)c(-c2ccccc2)nn1-c1ccccc1-c1cccc(OCC(=O)O)c1 — concentration (female Sprague-Dawley rat, ovary; oral, 10 mg/kg, 1 h): 1750 ng/g
Cn1cc(-c2ccc(-c3cncc(Cl)c3N3CCC4(CCNC4=O)CC3)cc2)cn1 — log2 fold change (COLO 205; gene expression, microarray, item: IL32 mRNA; concentration not given, 2 h; baseline: untreated cells): 2.13
Cc1cc(Nc2ccc(S(F)(F)(F)(F)F)cc2)n2nc(C(C)(F)F)nc2n1 — patients with administration site conditions (Plasmodium falciparum; P. falciparum malaria patients; oral, 400 mg): 30.8%
Cc1nc2cccc(OCC(C)(C)C(=O)NC(C)C)c2c(N)c1C(=O)O — micronucleated NCE per 2000 PCE (male Swiss albino CD-1 mouse, bone marrow; oral, 1000 mg/kg, 36 h): 0.9
Cn1ncnc1[C@H]1c2n[nH]c(=O)c3cc(F)cc(c23)N[C@@H]1c1ccc(F)cc1 — CL/F at steady state (human patients, plasma; oral, 400 µg/m2 twice daily day 1, day 5, dose level DL2, median, together with: temozolomide 20 mg/m2 daily days 2-6): 3.1 L/h/m2
COc1ccc2nc(-c3cc(N(C)C)ccn3)c(Nc3ccc(F)cc3)n2c1 — CC50 (peritoneal macrophages, Swiss mice; 5 days, 5% fetal calf serum): 7.94 µM
CC(C)(C(=O)N1CCOc2c(C#N)cncc2C1)C(F)F — subjects with TEAE (item: medical device site dermatitis; human, both sexes; oral, 20 mg once daily, 14 days, multiple ascending dose): 0%
CC(=O)Nc1cccc(-n2c(=O)n(C3CC3)c(=O)c3c(Nc4ccc(I)cc4F)n(C)c(=O)c(C)c32)c1 — viability (NCI-H2087 (BRAF L597V); concentration not given, 72 h, unit not given; baseline: DMSO): 0.393 and 0.711 and 0.997 and 0.39
CC(C)C[C@H](NC(=O)C[C@H](O)[C@H](CC(C)C)NC(=O)[C@H](Cc1c[nH]cn1)NC(=O)CNC(=O)[C@@H](NC(=O)[C@H](C)NC(=O)[C@H](Cc1c[nH]c2ccccc12)NC(=O)[C@H](CCC(N)=O)NC(=O)[C@@H](Cc1ccccc1)NC(=O)COCCOCCNC(=O)CCC(C(=O)O)N1CCN(CC(=O)O)CCN(CC(=O)O)CCN(CC(=O)O)CC1)C(C)C)C(N)=O (stereo partly shown) [lutetium-177 labelled] — tissue uptake (female BALB/c nu/nu mice, heart; intravenous, 100 pmol, 2 h, together with: PA 300 µg): 0.08 ± 0.03 %ID/g
CCO[C@H]1CCN(Cc2c(OC)cc(C)c3[nH]ccc23)[C@H](c2ccc(C(=O)O)cc2)C1 — t½ (healthy human controls, plasma; oral, 200 mg, single dose, median): 18.7 h
O=C(OC(C(F)(F)F)C(F)(F)F)N1CCN(Cc2cccc(Oc3ccccc3)c2)CC1 — k2 (PET blocking study; rhesus monkey, brain STR; 0.01 mg/kg, compound pretreatment, together with: [18F]T-401 tracer): 0.308 min⁻¹
N#Cc1ccc2c(c1)[C@H]1CCCN(C(=O)c3ccc4[nH]cnc4c3)[C@H]1C2 — median ACTH level (human; 240 mg, end of trial): 5.8 pmol/L
C#Cc1cccc(Nc2ncnc3cc(OCCOC)c(OCCOC)cc23)c1 — V/F (human, plasma; oral, 50 mg, day 1): 147 ± 73 L
Cc1cccc(CNC(=O)c2cn(CCNC(=O)c3ccccc3Sc3c([N+](=O)[O-])ncn3C)c3cc4c(cc3c2=O)OC(F)(F)O4)n1 — bioavailability (Sprague-Dawley rat, male, whole blood; intramuscular, 3 mg/kg of parent drug): 48%
CC[C@H](CO)N(CCN(N=O)[C@H](CC)CO)N=O — revertant colonies per plate (Salmonella typhimurium; plate incorporation; TA1535, water; 2500 µg/plate, without S9 test 2): 26.7 ± 5

Excerpt of the above:
CC[C@H](CO)N(CCN(N=O)[C@H](CC)CO)N=O — revertant colonies per plate (Salmonella typhimurium; plate incorporation; TA1535, water; 2500 µg/plate, without S9 test 2): 26.7 ± 5
